Measurements gathered from unrelated publications.
Each numbered part is a random draw from the data of one study; scales do not carry over between parts.

Sample 1
Target: Centromere-binding protein 1, full length, N-terminal tag (CBF1, Saccharomyces cerevisiae, UniProt P17106, residues 1-351)
UniProt P17106, sequence (whole entry, looked up): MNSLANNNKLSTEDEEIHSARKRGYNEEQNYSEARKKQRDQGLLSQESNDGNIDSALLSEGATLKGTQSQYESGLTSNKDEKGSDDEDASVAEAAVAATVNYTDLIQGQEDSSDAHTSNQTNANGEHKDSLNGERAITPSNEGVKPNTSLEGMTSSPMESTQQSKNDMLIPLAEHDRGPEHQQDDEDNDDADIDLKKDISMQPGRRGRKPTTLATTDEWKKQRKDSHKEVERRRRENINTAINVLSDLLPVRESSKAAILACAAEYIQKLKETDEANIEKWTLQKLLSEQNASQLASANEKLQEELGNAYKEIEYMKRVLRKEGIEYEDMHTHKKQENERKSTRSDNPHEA
Method: protein-binding microarray
Form: double-stranded DNA, one strand shown
Matrix: in vitro
Concentration: 0.8 µM
Notes: whole 60-bp probe, no competitor
Direction: higher = stronger binding
Oligonucleotide | fluorescence intensity [a.u.]
CTACGAACCATAGCTGATGGAACTCCGCTTTTCTTCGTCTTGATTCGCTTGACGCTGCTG | 522
CTAAAGAAAATAAAGAACGTGATAATGATGAATTTCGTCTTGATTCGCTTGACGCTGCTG | 1150
CCTAACTACTATACTCAGGTGATATAGCTTCGTACAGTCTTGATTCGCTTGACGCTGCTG | 794
GAAGTGAGGTTAACATTGGTGGTGGTCTGACATTAGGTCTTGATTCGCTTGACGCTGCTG | 628
CTAATGTTTCACCGGCACGTTTTGTTTTGTCCCTTCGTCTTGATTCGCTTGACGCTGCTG | 684
CTATAGTGTTTTCAAAACACCACGAAAAGACTTTTCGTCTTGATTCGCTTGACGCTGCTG | 479
GAAAAACGATCCGACAACGTGCATGGTAATTCATAGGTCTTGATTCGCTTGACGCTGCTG | 918
CTAAAATGCCAACGTGGTCAGACATCAATTCAATTCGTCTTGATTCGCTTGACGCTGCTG | 674
GAAGGTGCTCCATCCTAGGTGACCGTCGTATGCTAGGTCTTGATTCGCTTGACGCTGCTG | 486
GAATTTCAAACTGATCACGTGAAAGGGAGTTAATAGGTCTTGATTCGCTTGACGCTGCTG | 18100
CCTAACTACTATAAACAGGTGAAATAGCTTCGTACAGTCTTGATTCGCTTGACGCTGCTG | 520
GAATCACCAAAAAGAAACGTGCGAAAAAAACCGTAGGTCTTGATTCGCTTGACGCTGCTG | 707
GAATACGTGGACTAGCGTGTGACTACAAGTTAATAGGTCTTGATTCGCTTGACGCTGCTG | 619
CTATGTCGGTCACGGTCCACCACCAATTGTGGCTTCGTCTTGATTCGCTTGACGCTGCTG | 1580
CTAAGAAGAAAAAAGCGCGTGGTACGAGCCGCGTTCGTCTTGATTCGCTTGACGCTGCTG | 558
CTATTGAATCTCCGCTACGTCACATTTTCTACATTCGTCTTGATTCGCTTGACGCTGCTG | 623
CTACTATAGACGCCGCACATGCTTTCAAATAGATTCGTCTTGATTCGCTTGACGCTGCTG | 778
GAAATATTTCAATTGCACGAGCAGATAATCCAATAGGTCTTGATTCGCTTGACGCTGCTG | 727
CTAGCATCATGACTATTCGTGGTAGTCACGCATTTCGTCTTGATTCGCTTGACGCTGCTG | 734

Sample 2
Target: Histone acetyltransferase KAT6A, both winged helices, GST fusion (KAT6A, Homo sapiens, UniProt Q92794, residues 1-181)
Method: protein binding microarray
Form: double-stranded DNA, one strand shown
Matrix: in vitro
Concentration: not given
Notes: 8-mer, flanks averaged, mean of 2 arrays, mostly near background
Relative to: not given
Direction: higher = stronger binding
Residues (chain): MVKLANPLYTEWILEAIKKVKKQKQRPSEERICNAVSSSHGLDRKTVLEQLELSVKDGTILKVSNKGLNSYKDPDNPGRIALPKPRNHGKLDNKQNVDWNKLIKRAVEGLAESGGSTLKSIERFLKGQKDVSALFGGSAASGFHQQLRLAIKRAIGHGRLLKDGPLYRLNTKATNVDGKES
Oligonucleotide | E-score
CTTTCCAA | -0.0879
CACTCGTA | -0.076
AAGGCCAC | -0.11
AGAACACC | 0.0704
CGTATGGA | 0.0175
TTAATAAA | 0.0458
CGTTAGCC | 0.0412
CCACAGCC | -0.12
CTGCCGAA | 0.0374
AGCGTAAC | 0.095
CGATCTTA | 0.162
CATGCGGG | 0.179
ATCTTGTA | -0.138
TCCTTGCA | -0.0907
AAGTGGAA | -0.176
CCACCTCA | -0.268
CCCGAGTA | 0.0499
ATACAGGA | 0.0549
CACCCTAA | -0.205
CTCAGCCC | -0.136
AAACCGAA | -0.0348
CCTGCACC | -0.155
AATCGTCC | 0.148
AACTCTAT | -0.136
AAGGTATG | -0.0522

Sample 3
Target: RNA binding protein fox-1 homolog 2, RRM domain, GST-SBP tag (RBFOX2, Homo sapiens, UniProt O43251-10, residues 100-194)
Method: RNA Bind-n-Seq
Form: RNA
Matrix: in vitro
Concentration: 365 nM
Notes: natural RNA segment, single round, ends assumed
Relative to: no-protein control
Direction: higher = stronger binding
Residues (chain): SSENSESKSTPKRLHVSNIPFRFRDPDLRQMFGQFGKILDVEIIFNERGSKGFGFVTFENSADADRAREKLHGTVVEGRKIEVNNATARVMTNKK
Oligonucleotide | RBNS enrichment (R)
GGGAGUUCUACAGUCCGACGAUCUAAGCUUCAAAAUUAAUCAUUUAAAGUGUUUCUUUAAGAGAGCCAUGUUAGAGGCUCACACUUUAGCUUGAAAGGAGUUGAUGAAUUAAUUUUUUAAAGGGAACUUUUUAUGGAAUUCUCGGGUGCCAA | 1.13
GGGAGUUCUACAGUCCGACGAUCCAGAAGGACAUCCAAGCCUGCAAUGGCAGGUCACUAUUUACUUAAUAUUUCCACCUAUGGCAGGGGUACAGAGAACAUUAAAAGGACCCAUUCUGUAAAUCCUGAUGAUCUGGAAUUCUCGGGUGCCAA | 0.591
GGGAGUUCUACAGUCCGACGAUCCCUUUGCCUCCCAAGUGCUGGGACUAAAGGUGUGUGCCACCACUGUCCAGCUUGUGACCAGCCUUUUAAAAGUGCCACUCACUCCCUGACUGCCUUCAGCUGUAAUUAAGUGGAAUUCUCGGGUGCCAA | 0.37
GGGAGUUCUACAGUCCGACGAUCGGCAAGAAUGCAGUGUUGGGCCUUUCAACCACUAGAACAAACUUUUUUCAAUUGACAGUUGCAGAAUUGUGGAGUGUUUUUACAUUGAUCUUUUGCUAAUGCAGUUAGCAUGGAAUUCUCGGGUGCCAA | 1.3
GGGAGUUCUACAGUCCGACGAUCCCCUGUCCCCCACCUGUGGUUCUGGCCUCUGAGGUUGGGGGACUACUUGUUUCCCACCCCAGGUUCCUCCAGGCCAAGUCAUGGGGUGAUGAGGAGUUGGGGCCCUGUCUUGGAAUUCUCGGGUGCCAA | 0.21
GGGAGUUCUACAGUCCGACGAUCAGCCACACAGCUGCAAAACGUUGAAGAAAAUCAUUGAUGUAUAAAAAUUGCAGUAUCUUUCAAAUCAGUAAAAUGGAUGCUUAUUAUUUAUCUUGUUCUUCAGUUAACAUUGGAAUUCUCGGGUGCCAA | 0.503
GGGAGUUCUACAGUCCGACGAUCCCCUUUCUCUGCCCGCCUUUCCCAUCCUGCUGUAGACUUCUUGAUUGUCAGUCUGUGUCACAUCCAGUGAUUGUUUUGGUUUCUGUUCCCUUUCUGACUGCCCAAGGGGCUGGAAUUCUCGGGUGCCAA | 3.43
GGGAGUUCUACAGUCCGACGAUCUGCCUGCCAGCCAGCAGCCCCUCAGGAAUGCUUCUAUAAUAGAUCCAGUAAUGAAAGCAGCACCAUAUCCUAAUCUAAUGUCAGCUUCGAGAAUGAAGACUGCAGUCAGGUGGAAUUCUCGGGUGCCAA | 0.506
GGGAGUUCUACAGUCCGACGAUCCGUGUCUGGCGUUGUGGGGAUGAACUUUUUGUUUUGUUUCUUCCUUUUUUAGUUCUUCAAAGAUAGGGAGGGAAGGGGGAACAUGAGCCUUUGUUGCUAUCAAUCCAAGAUGGAAUUCUCGGGUGCCAA | 0.377
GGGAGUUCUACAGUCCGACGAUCCCCCUUCCCCAGCCCUUAGCACAGAGAGGGACACAUGCCCCUCCCCCAGCUGCGUUUUUUUAUAGUAGAUUUUUAACAAAAAACGGGGAGAAAUAAUGCAUUUCUGUGGAUGGAAUUCUCGGGUGCCAA | 0.701
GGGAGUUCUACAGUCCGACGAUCAGAAUUCAGAGCACGGAACUUUCCAAGAACUGGUGUUAACAUCUUGUACUGUGGCCACGAUUUGUCCCCGUGAUGAUUCUUGGGUCUAGAUUGUGAGUUCUUCAAGGGCAUGGAAUUCUCGGGUGCCAA | 1.39
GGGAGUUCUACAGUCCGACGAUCUAGACCAUAGACUCUAGCCCAGGCUGAUCUGGAGCUUACUGUAUAGCCCAGGCUUUGAACUGGCCUUAGCCUUCCACAUGCUAGGAUUAUAGGUAUGAACCAACAUGCCCUGGAAUUCUCGGGUGCCAA | 0.44

Sample 4
Target: PABPC1L2, full length, GST fusion (mouse, UniProt A0ABA7IW68)
Method: RNAcompete
Form: RNA
Matrix: in vitro
Concentration: 20 nM
Notes: 7-mer, probes averaged, single round
Relative to: mean of 7-mers
Direction: higher = stronger binding
Construct (chain): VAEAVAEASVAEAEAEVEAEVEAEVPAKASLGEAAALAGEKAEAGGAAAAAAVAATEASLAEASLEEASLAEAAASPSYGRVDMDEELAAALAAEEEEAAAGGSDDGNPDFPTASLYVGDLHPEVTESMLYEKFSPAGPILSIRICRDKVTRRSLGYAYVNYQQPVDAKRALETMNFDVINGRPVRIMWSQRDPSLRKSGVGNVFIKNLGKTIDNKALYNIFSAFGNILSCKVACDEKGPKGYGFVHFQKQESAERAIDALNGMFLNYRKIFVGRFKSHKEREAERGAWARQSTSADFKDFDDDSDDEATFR
Oligonucleotide | 7-mer Z-score
AGUCGAU | -0.34
UUAAGUU | -0.269
GACCGGA | -0.188
UACUUAA | 0.111
GAAGGAA | 0.166
GAUCUAA | 0.046
AGCAUAG | -0.0989
UAGAACU | 0.0877
AGAAGCG | -0.0772
CCGCAGC | -0.22
UACCGUG | -0.0772
CAUGAAA | 0.666
CCCAUCG | -0.315
GCUAAGC | -0.307
ACAAACA | 2.84
AGCGUCU | -0.26
GGGUCCU | -0.0373

Sample 5
Target: Interferon regulatory factor 7, full length, phosphomimetic (IRF7, Homo sapiens, UniProt Q92985, residues 1-503, S471D/S472D/S475D/S476D/S477D/S483D/S484D/S487D)
UniProt Q92985, sequence (whole entry, unmodified, looked up): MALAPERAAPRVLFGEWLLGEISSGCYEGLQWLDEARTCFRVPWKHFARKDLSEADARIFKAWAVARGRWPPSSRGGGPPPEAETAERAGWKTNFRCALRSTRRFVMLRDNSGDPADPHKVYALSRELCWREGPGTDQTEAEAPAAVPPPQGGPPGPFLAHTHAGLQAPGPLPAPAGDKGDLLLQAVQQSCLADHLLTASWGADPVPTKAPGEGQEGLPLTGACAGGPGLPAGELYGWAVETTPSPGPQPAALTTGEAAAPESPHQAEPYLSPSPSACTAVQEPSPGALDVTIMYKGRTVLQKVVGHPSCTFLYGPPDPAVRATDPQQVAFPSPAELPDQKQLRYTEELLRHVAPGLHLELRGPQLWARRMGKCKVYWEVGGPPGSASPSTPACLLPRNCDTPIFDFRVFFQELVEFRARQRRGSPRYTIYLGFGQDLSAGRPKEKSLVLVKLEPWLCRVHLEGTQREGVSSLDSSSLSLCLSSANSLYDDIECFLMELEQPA
Method: protein-binding microarray
Form: double-stranded DNA, one strand shown
Matrix: in vitro
Concentration: 2200 nM top
Notes: 60-bp whole probe
Together with: salmon DNA 0.4 mg/ml
Relative to: random background probes
Direction: higher = stronger binding
All sequences stand within: GCCTAGCAC … GTCTTGATTCGCTTGACGCTGCTG
Oligonucleotide | fitted relative affinity [z-score]
TTAGGTTTCCTATTCCTTTAGTGCTAG | 2.67
TTTGGTATCGGGACTGGGTTAGTGCTA | 0.409
TTAGGTCTCGGTAGCGGTTAGTGCTAG | -0.0455
TTAGGTCCCCTTTTCCTTTAGTGCTAG | 2.24
GACGATTTCGGGCCTGGAGACGTGCTA | 0.692
TCAGCATTGCTTCTATAACTGTGCTAG | 0.411
AGGCATCTCGGAGATCTCGAAGTGCTA | -0.651
TCATGTTTTTTTCTATAACTGTGCTAG | 1.34
TTACTTCCCAATAATCTTTTCGTGCTA | 1.88
TTAGGACTGGACTATCGGTAAGTGCTA | -0.637
TTAGGTTTCGGGTTTCAGTTAGTGCTA | 8.52
TTAGTTCTGAGTCTTCCCTTGTGCTAG | 0.951
GACGATCTCAGTATCGAGGCGTGCTAG | 0.0287
TTACGTATCCTTCTCCTTTAGTGCTAG | 2.86
TCTAGCCTCCATTTTTACCCGTGCTAG | 1.16
TTTGGACTGGGGACTGGGTTAGTGCTA | -0.651

Repeated from above (sample 2):
Oligonucleotide | E-score
CGTTAGCC | 0.0412
CCACAGCC | -0.12
CTCAGCCC | -0.136
AGCGTAAC | 0.095
ATACAGGA | 0.0549
TTAATAAA | 0.0458
CCCGAGTA | 0.0499
CACTCGTA | -0.076
CGTATGGA | 0.0175
AAGGTATG | -0.0522
CCACCTCA | -0.268
AAGTGGAA | -0.176
AAACCGAA | -0.0348
